Measured values pooled from the literature.
Every numbered part comes from another study and shows a few of its results, in no order.

Set 1
Target: Ras GTPase-activating protein-binding protein 1, full length (G3BP1, Homo sapiens, UniProt Q13283)
Sequence of UniProt Q13283 (whole entry, looked up): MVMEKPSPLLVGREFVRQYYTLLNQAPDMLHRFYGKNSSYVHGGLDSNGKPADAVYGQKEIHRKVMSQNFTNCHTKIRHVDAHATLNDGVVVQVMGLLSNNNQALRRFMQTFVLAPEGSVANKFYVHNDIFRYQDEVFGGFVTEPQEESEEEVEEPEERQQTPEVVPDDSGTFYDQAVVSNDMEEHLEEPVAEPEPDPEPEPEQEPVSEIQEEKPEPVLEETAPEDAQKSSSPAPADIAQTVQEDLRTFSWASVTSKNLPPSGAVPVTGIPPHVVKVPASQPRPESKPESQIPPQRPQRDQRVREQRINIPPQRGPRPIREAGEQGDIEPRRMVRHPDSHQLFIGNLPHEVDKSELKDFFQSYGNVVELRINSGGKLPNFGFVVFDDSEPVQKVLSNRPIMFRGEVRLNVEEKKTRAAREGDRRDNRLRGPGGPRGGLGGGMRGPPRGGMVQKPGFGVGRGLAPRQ
Method: RNA Bind-n-Seq
Form: RNA
Matrix: in vitro
Tested at: 200 nM
Setting: whole 134-nt RNA, ends assumed
Together with: 150 mM LiCl
Baseline: input library
Direction: higher = stronger binding
Library: 7-deaza-guanosine replaces G
Constant ends, left off below: GGGAGUUCUACAGUCCGACGAUC … UGGAAUUCUCGGGUGUCAAGG
`ACCAUGCAGGUGGGCAUCUUUGGGAAGUGGGGCAAGGGGGGGAUAGGGAGGGGGGUAACACUUUGGGAACAGGUGGUACCAGGUCGUUUC` gave a log2 enrichment of 0.222.
The log2 enrichment of `GCAGGAAGUAAAAACAAAUGGAAAUGCUUCGGAUAGUGGCAGGGGUGAGGGUUGCUAAGGAAAGGGUGGGAUGGGAGUGGGUAAAGAGUU` is reported as 0.121.
The log2 enrichment of `UUUAGUGACUUUGGAUGAAGUAACUGAAGAGGAUGAAGACUCUCUGGCGGAUUUUAACAACCUUAAAGAAGAGCUUAAUUUUGUUACUGU` is reported as -3.73.
For `AAGUCCUGUGCUACACAUCGUAUGUACCGAAUCGGGGUUUGGGGUUUGGGGUUUGGAAAGUAUUAUGUUACGCCGUUCGGAUCUGCACUU`, the log2 enrichment was -0.629.
The log2 enrichment of `CGGGAGGUGGAUUUUGUUUAUUUUUUUAGCUCAUUUCCAGGGGUGGGAAUUUUUUUUUAAUAUGUGUCAUGAAUAAAGUUGUUUUUGAAA` is reported as 0.248.
The log2 enrichment of `GUCCUGUGCUACACAUCGUAUGUACCGAAUCGGGGUUUGGGGAAAAAAAGGGGAGGGGAAAGUAUUAUGUUACGCCGUUCGGAUCUGCAC` is reported as -0.0519.
With `UCCUGUGCUACACAUCGUAUGUACCGAAUCGGGGUUUUUUGGUUUUUUGGUUUUUUGGGGAAAGUAUUAUGUUACGCCGUUCGGAUCUGC` the log2 enrichment was -0.22.
For `CCUCAAGUCCUGUGCUACACAUCGUAUGUACCGAAUCGGUGGGUGGGGUGGGAAAGUAUUAUGUUACGCCGUUCGGAUCUGCACUUCCAG`, the log2 enrichment was -0.253.
`CAAGUCCUGUGCUACACAUCGUAUGUACCGAAUCGGGGUUUGGGGUUUGGGUUUGGAAAGUAUUAUGUUACGCCGUUCGGAUCUGCACUU` has a log2 enrichment of -0.882.
For `UGGACGAUGAAGAGGAAACAAUUGAAGAGGAGGAAGCAAAUGAAGGCGUUGUGGACCACCAAACAGAACUUUCUAAUUUAGCCAAGGAAG`, the log2 enrichment was -0.501.
For `UUUGAUGACAGUCUGCAGGAGCUGCCUGGUGAAGUACCUGGAGGAGAACAACACCUGCCCCACCUGCAGGAUUGUGAUCCACCAGAGCCA`, the log2 enrichment was -1.35.

Set 2
Target: RING finger protein unkempt homolog, zinc fingers 1-6, GST-SBP tag (UNK, Homo sapiens, UniProt Q9C0B0, residues 30-357)
Sequence of UniProt Q9C0B0 (30-357, looked up): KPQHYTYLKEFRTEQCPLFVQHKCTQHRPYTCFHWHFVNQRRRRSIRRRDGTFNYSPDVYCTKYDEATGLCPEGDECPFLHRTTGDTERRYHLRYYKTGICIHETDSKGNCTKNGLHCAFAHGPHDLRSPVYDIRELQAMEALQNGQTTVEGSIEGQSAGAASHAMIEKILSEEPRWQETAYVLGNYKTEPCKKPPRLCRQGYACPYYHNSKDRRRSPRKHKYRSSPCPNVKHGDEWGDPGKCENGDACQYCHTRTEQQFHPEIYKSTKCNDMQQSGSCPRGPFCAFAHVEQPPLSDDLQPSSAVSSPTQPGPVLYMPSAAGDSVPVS
Method: RNA Bind-n-Seq
Form: RNA
Matrix: in vitro
Tested at: not given
Setting: RNA with constant flanks, human-mouse chimeric sites, ends assumed
Baseline: input RNA pool
Direction: higher = stronger binding
Constant ends, left off below: GGGAGUUCUACAGUCCGACGAUC … CAACAGAGGAUUGAGCAUCA
For `UAAGUCCAUUUGUAAGCCUUCGCUCAUAAAGUUUUAAAUUCUGGACCAAUAGUGUUUAUCUUUAGAAUAUUGUAUCCAAUACUUUGCCUAGUAUGUAACUCACUCUUACUGAUAAUAAAA`, the bound/input enrichment was 17.5 ratio.
With `AGAGAUAAGACAUCCAGGAACAUGCGAGGCUCCCGGAUGAAUGGGUUGCCUAGCCCCACUCAUAGUGCCCACUGUAGCUUCUACCGAACCAGAACCUUGCAGGCACUAAGUAAUGAGAAG` the bound/input enrichment was 0.157 ratio.
`GGGGAGAAACCUUACGAGUGUGUGCAGUGUGGGAAAUCGUAUAGUCAGAGCUCAAACCUCUUCAGACAUCAGAGACGACACAAUGCAGAAAAACUUUUGAAUGUUGUGAAGGUUUAAGAA` gave a bound/input enrichment of 0.742 ratio.
The bound/input enrichment of `CCCCAAUUACCAUCUGUGGUCUGGAACUGCACUCUCUUUUUUAAAAAACAUGUAUACAUUUUAGGGCUGUAGAUUUAUUUUCCUGGUUUUGUUUUUCUUGCUUAUUCUUUGAGCACAGAA` is reported as 4.04 ratio.
The bound/input enrichment of `CCCACGCCUCCUCUCCCACAGGCCCAAGAUGUGACCCACCAGUGCCUUUUGUCUUCCUGUCAGCUCUGUCAAUCACGCCUGUCCUCUCACGCCCACACCAAGUGCCCAAAGUGGGGAGGG` is reported as 0.803 ratio.
With `GUAUACGGUUAUCGAGGAAAGGACUGUAGAGCGAAUGUAUACCUGCUUCCCACAGGGGAGAUAGUUUAUUUUAUCGCAUCAGUAGUAGUCCUGUUUAAUUAUGAGGAGAGGACUCAGCGA` the bound/input enrichment was 3.19 ratio.
The bound/input enrichment of `GCCACCAGAUCCCAGAAACAUGACCCUUGCUGCCUACAAGGAGAAGAUGAAGGAGCUCCCACUAGUGUCCUUGUUCUGCUCCUGCUUCCUGGCCGAUCCCCUGAAUAAGUCGUCCUACAA` is reported as 0.457 ratio.
For `CUGUUUUACAGCCACACCAAUCUUGGCAUGUAUUAAGGAAAAAAAAAAUCCCUGUUGAAGUAGUUUUUCCACCUAUCAGCACUGAGUAAAUGCCAUAAAUCCAUUGAAAUGGUCUAAAUA`, the bound/input enrichment was 0.221 ratio.
The bound/input enrichment of `GAUAAGAAAAGCUUGUUGGAGACCCGCUUGCACAUCACUGGUAGAGACCUGAGGUGUCAAAUAGCUGAAACUUUCGGACUUCAAGAAAAUUACAUCAAGAUCGUAAUAAAUAAGAAACAG` is reported as 0.274 ratio.
The bound/input enrichment of `ACACAAUAUGAGACCAACAGCUUGGACUUCAAAGUUGGGGCAGAUGGGACAGUCUUCGCCACCCGGGAGUUGAAGAUCCCCUCCGAGCAGGUGGCGUUCACGGUGACUGCAUGGGACAGC` is reported as 0.237 ratio.
`AGUUCCAGAACCAGAAUAGAAAUGAAGAUGAGAUUACCCAGACGAGCCAAAACAGCUGCGCUACAGAAAAGUAAACUUAACCUUGCAGAGUUCCUUAAUGAAGAUACAAGUUAAGAGAGC` has a bound/input enrichment of 0.245 ratio.

Set 3
Target: Histone acetyltransferase KAT6A, both winged helices, GST fusion (KAT6A, Homo sapiens, UniProt Q92794, residues 1-181)
Method: protein binding microarray
Form: double-stranded DNA, one strand shown
Matrix: in vitro
Tested at: not given
Setting: 8-mer, flanks averaged, mean of 2 arrays, mostly near background
Baseline: not given
Direction: higher = stronger binding
Target sequence (chain): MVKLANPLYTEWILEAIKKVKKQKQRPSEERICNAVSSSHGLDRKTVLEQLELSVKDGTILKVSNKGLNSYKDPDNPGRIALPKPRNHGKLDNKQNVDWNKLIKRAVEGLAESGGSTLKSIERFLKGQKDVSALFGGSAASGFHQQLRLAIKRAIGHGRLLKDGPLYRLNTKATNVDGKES
With `CAGATTTA` the E-score was -0.177.
For `AGATCGGA`, the E-score was 0.108.
The E-score of `AAGCTGTC` is reported as -0.081.
`CACGGGGG` gave an E-score of 0.0964.
`ACCGATAA` has an E-score of 0.136.
`AGTGGGAA` gave an E-score of -0.15.
With `CGGGGGCA` the E-score was 0.0233.
For `CCTTGGCC`, the E-score was -0.227.
With `ACCACGAA` the E-score was -0.125.
`AGAAACTG` gave an E-score of -0.0162.
`GCGCTCCA` gave an E-score of 0.211.
`AGCCGGGC` has an E-score of 0.104.
`GACCCGAC` gave an E-score of 0.0721.
`TTACGGAA` has an E-score of 0.256.
With `GCAGCGTA` the E-score was 0.0504.
The E-score of `ACAAATTA` is reported as 0.0125.
With `GAGCTTGA` the E-score was -0.102.
The E-score of `CATTACCG` is reported as 0.155.
`AATCCTTG` has an E-score of -0.0324.
`AATCCGAT` gave an E-score of 0.155.
The E-score of `GGACTCGA` is reported as -0.0683.
With `TGCGAGAA` the E-score was 0.0185.
For `CTAATCTA`, the E-score was -0.105.
`AAGCGCGG` has an E-score of 0.357.

Set 4
Target: RNA binding protein fox-1 homolog 2, RRM domain, GST-SBP tag (RBFOX2, Homo sapiens, UniProt O43251-10, residues 100-194)
Method: RNA Bind-n-Seq
Form: RNA
Matrix: in vitro
Tested at: 365 nM
Setting: natural RNA segment, single round, ends assumed
Baseline: no-protein control
Direction: higher = stronger binding
Constant ends, left off below: GGGAGUUCUACAGUCCGACGAUC … UGGAAUUCUCGGGUGCCAA
Target sequence (chain): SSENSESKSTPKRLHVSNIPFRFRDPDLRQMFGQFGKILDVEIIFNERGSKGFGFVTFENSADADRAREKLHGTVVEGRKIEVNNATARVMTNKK
`GUAUUACAACCCAACGGCGGCCCAUCUUCAACGGAAAGCGAGAACCAUUUUGGAAACUGUCAUGUAACUUAUUUUCUCCUUUAACCUCGUCAUCGUUUUCUGUAGGGGAA` — result for “RBNS enrichment (R)”: 0.723.
`AGCUUCUCGGCAUCAGCGCAGCUGCACCACAGGCUGAGCUUACAGAGCUUCAGGCCCAGACUGGGGCACCGAAGCUUUCAGCUUUGGGGGUCAUUCUACCAACAAUCAGU` — result for “RBNS enrichment (R)”: 0.318.
`AGCAUUGUAAAUAAUCUUAUGAAACCUUUUUUGAUUGAAGCUAUUCAAAAUAAAAAUUUUAAUGAAUAAAUAACACUUUUUUUCUGUGUCUUUAUUCAUUUGUUUGCUUU`: “RBNS enrichment (R)” 1.12.
For `GGAUGGAAAAAGCUGAAGCAAGUGGCUGUUCUCUGAUCAGGCGGGGGAUGCCUCUUUUCCUCGCGAGGCGGCCAUCCUCUCUGGACACUGGCCUCGCCGUCUCUUUCCUC`, “RBNS enrichment (R)” read 0.659.
`AUAGGCUGUAGAACAGUAAAGUGGGAACUGGGCGGACUUUUCUAACAGUCGUACUUUUAUAAAGCGGUAUUUGGGUGUUUUUUCCCUCGAAUAGGUACUUUUGGAAGUUC` — result for “RBNS enrichment (R)”: 0.421.
Under “RBNS enrichment (R)”, `AAGACAAAUUAGUGUUUAGUAAUUGCAUCAUCUCUGUGCUUACCUAUACAAACAUAAGUUUAUUUUAUAUGCCCAGAUGUCUACAGAGACCCUUUUUGUAAAUGUCAAGG` is recorded as 0.536.
Under “RBNS enrichment (R)”, `AAGGAAACCCUGUAUAUACCUACAUUGACCCAAGAAAUAUUUACGCAAUCCCUAGCAGAACAUUGUUUCUGAGGAGGCAUAUGUGAGAUUGAUUUGUUGGUUCAUGCCAA` is recorded as 0.302.
For `CUGUGCACUAGCCUGUGAUUAACUUGCUUAGUAUGGUUCUCAGAUCUUGACAGUAUAUUUGAAACUGUAAAUAUGUUUGUGCCUUAAAAGGAGAGAAGAAAGUGUAGAUA`, “RBNS enrichment (R)” read 0.651.
`AUUACGCAAGGAAAGAACGGGAAGAAAGGAUAUUUUGCUGCAAGAUUAAGUUACAGUUCUCAGUGGAAGUCAUUUGUGAUGGGGUCUAAUUCUUAUUACUUCAACAAAUA`: “RBNS enrichment (R)” 0.585.
For `CAUACACCUGAGAGGAAUUGAGGGAGUAUUGGUGUCUAGGUUGUCAUGUUUCUGUUUUGUGACACAGUGGAUGGAAAGGUUUGUCCUCUUCCUACUAUAGCAUGAACCCU`, “RBNS enrichment (R)” read 0.334.
`UAAUGUGGAAGAGCCAUUUCAUAGGUCAUAGGUGGUAUGGUAUAUUUCUUCAGAGUCAACCUUGGCCCUGAGAAGUAUGUCCUCCUGGUGUGCUCAGGCUCAACGGCAGU`: “RBNS enrichment (R)” 0.327.
`GUGUGAGUGUGCAAGUAUGUGUGCAGAGCUUGUGUUUCAUACUGCAGAUAUAAAUAAAGGAAGAUAGAGAACAUUCCUGCUGUGGGACUGUGAGUUCUGGGACUCAGAGU`: “RBNS enrichment (R)” 1.02.

Some of these lines once more (set 3):
For `CCTTGGCC`, the E-score was -0.227.
With `ACCACGAA` the E-score was -0.125.
`AGAAACTG` gave an E-score of -0.0162.
`GCGCTCCA` gave an E-score of 0.211.
`AGCCGGGC` has an E-score of 0.104.
`GACCCGAC` gave an E-score of 0.0721.
`TTACGGAA` has an E-score of 0.256.
With `GCAGCGTA` the E-score was 0.0504.
